Results of several laboratories.
A part holds a random share of what one study measured.
UniProt P36896, sequence (whole entry, looked up): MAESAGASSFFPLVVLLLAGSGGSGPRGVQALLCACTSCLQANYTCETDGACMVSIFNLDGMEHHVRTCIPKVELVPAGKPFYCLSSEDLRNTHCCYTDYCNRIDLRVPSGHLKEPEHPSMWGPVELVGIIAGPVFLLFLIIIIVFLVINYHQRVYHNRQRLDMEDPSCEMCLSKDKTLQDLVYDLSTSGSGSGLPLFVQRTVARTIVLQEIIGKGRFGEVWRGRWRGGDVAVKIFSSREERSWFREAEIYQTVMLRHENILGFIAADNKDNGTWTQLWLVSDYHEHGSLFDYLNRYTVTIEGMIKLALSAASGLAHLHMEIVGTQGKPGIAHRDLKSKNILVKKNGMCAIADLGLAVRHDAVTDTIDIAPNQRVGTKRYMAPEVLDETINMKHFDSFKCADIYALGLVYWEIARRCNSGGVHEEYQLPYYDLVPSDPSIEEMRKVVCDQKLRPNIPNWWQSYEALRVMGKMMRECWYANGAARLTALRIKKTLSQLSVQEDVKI
UniProt P20794, sequence (whole entry, looked up): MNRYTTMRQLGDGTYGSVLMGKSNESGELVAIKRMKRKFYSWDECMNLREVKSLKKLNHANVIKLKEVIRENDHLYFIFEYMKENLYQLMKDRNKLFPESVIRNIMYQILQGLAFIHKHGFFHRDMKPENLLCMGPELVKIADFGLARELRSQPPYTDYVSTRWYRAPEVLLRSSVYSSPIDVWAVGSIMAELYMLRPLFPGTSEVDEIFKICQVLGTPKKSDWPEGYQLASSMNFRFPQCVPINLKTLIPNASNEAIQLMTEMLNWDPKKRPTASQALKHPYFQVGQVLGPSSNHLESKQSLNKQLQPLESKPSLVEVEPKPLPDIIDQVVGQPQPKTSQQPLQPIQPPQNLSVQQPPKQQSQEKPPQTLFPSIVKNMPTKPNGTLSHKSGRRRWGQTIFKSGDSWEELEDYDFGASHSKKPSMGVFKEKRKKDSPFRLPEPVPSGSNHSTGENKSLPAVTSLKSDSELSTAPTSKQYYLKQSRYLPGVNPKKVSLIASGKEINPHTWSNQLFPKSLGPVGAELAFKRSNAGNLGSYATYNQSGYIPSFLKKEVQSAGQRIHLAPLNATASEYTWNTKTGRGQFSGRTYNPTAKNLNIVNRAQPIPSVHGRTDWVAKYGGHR
UniProt Q07002, sequence (whole entry, looked up): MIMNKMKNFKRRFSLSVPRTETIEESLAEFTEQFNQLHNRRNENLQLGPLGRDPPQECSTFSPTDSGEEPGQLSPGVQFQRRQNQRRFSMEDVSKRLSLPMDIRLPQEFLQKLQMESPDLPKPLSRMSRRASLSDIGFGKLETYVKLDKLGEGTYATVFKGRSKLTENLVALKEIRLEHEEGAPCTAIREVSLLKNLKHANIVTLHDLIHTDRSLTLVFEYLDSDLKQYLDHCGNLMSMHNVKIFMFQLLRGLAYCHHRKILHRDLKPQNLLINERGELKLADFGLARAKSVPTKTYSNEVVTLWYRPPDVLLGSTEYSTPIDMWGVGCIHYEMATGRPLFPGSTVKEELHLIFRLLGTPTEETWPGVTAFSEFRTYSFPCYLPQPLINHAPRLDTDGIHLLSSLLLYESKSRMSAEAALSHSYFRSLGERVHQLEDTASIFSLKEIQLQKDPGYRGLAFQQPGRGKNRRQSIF
UniProt Q00532, sequence (whole entry, looked up): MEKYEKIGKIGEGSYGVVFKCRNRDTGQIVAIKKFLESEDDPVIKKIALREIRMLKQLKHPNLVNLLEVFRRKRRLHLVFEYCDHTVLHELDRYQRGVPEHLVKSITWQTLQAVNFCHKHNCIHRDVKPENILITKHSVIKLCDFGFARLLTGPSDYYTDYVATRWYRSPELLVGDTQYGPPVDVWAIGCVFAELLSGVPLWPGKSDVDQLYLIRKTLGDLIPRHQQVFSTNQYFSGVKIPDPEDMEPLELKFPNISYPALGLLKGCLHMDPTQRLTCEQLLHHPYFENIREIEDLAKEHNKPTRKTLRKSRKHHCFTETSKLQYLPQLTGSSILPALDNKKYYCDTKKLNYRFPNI
UniProt P57059, sequence (whole entry, looked up): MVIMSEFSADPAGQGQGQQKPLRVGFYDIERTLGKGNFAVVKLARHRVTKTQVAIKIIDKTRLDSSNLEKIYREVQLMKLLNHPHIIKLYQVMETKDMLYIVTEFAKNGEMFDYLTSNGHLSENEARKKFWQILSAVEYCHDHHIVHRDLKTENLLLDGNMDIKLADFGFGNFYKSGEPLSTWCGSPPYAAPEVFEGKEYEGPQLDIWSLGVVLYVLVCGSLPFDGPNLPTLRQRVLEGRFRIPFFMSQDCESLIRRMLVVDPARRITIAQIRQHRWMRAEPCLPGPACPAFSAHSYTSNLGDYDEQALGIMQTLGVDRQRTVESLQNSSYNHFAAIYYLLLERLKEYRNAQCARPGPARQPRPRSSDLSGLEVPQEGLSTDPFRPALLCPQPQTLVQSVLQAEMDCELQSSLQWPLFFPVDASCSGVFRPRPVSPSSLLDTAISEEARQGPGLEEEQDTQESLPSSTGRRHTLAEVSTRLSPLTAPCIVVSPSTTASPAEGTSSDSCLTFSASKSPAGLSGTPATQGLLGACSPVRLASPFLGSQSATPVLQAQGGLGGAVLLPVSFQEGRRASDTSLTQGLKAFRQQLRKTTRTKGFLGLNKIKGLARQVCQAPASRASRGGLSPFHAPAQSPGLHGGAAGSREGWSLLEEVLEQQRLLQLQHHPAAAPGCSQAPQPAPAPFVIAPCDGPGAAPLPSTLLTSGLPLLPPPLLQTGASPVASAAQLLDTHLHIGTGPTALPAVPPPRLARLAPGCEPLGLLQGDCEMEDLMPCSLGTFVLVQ
UniProt P36507, sequence (whole entry, looked up): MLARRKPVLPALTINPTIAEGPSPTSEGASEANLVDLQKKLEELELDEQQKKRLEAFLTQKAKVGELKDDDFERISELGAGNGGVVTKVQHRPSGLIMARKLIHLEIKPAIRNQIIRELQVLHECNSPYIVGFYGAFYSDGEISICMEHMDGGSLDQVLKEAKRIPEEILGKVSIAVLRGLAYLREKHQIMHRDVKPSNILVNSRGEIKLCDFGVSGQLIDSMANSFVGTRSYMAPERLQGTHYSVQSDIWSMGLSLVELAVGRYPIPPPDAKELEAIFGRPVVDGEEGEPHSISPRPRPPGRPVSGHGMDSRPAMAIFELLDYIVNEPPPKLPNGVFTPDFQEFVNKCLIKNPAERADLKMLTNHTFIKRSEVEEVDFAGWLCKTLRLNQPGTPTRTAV
UniProt O75385, sequence (whole entry, looked up): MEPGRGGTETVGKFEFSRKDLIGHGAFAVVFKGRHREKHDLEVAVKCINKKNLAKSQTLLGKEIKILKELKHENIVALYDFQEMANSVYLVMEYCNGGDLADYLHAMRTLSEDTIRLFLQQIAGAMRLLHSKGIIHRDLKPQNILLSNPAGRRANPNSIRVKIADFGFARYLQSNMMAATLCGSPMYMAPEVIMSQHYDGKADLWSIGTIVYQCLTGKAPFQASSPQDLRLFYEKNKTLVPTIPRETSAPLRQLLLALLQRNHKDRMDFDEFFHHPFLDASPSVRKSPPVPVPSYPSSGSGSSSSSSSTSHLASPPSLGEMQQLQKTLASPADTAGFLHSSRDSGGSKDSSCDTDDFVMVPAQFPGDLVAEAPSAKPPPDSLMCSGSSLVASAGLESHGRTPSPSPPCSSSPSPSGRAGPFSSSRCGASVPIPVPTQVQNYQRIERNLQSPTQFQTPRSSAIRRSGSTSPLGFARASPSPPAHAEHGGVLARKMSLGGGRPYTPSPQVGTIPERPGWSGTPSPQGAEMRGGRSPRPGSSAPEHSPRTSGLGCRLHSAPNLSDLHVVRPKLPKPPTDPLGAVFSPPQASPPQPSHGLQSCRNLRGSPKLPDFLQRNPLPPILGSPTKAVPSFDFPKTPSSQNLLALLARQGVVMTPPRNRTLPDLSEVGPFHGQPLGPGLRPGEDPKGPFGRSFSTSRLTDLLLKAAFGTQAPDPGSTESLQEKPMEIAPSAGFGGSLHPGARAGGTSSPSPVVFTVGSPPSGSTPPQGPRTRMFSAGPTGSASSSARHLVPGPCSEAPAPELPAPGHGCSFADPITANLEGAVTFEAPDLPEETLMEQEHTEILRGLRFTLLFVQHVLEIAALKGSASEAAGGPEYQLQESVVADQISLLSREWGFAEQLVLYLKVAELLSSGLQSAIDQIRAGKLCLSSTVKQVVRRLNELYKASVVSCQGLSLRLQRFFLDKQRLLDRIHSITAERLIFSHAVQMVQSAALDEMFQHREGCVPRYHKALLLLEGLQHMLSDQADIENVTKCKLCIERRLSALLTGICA
UniProt P10398, sequence (whole entry, looked up): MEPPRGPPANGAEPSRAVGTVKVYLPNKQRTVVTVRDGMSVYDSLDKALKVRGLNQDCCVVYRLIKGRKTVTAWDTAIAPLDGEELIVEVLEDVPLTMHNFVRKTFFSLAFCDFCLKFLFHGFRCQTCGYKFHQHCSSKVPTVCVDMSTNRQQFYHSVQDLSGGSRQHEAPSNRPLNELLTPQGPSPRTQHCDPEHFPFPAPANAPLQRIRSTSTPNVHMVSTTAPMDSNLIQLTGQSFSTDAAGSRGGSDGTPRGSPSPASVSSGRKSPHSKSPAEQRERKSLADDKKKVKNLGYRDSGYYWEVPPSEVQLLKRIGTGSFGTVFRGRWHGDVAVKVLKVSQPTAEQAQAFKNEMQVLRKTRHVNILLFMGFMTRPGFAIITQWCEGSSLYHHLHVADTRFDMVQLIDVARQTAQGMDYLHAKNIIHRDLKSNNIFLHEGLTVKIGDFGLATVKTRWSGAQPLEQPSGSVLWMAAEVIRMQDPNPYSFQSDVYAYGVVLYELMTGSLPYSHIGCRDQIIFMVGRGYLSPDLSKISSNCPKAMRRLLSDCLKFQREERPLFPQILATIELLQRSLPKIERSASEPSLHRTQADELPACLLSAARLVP

Study 1 — matrix: plasma; route: oral
Compound: COc1ccc(-c2c(Nc3ccccn3)[nH]c3c(C4=CCCCC4)c(-c4ccccc4)nn3c2=O)cc1
For human patients; 200 mg once daily, 0.5 h, cycle 1: “plasma concentration, geometric mean” read 4380 ng/mL.
It gave 4800 ng/mL for “plasma concentration, geometric mean” (human patients; 150 mg once daily, 2 h, cycle 1).
The “plasma concentration, geometric mean” was 1060 ng/mL (cancer patients; 100 mg, 4 h post-dose, single dose).
human patients; 100 mg once daily, 8 h, cycle 1 — “plasma concentration, geometric mean”: 2920 ng/mL.
LC-MS/MS; human; 200 mg twice daily, 48 h, single dose — “plasma concentration, geometric mean”: 277 ng/mL.
It gave 2680 ng/mL for “plasma concentration, geometric mean” (human patients; 400 mg once daily, 6 h, cycle 1).
The “plasma concentration, geometric mean” was 12300 ng/mL (LC-MS/MS; human; 200 mg twice daily, 3 h).
LC-MS/MS; human; 200 mg twice daily, 2 h — “plasma concentration, geometric mean”: 13100 ng/mL.
It gave 1590 ng/mL for “plasma concentration, geometric mean” (LC-MS/MS; human; 50 mg once daily, 8 h, cycle 1).

Study 2 — read-out: enzyme activity; tested at: 5 µM
Compound: O=C(Nc1cnn(-c2csc(C(=O)NC3COC3)c2)c1)Nc1ccccc1Cl
It gave 98.8% for remaining activity (Serine/threonine-protein kinase MAK (MAK, Homo sapiens, UniProt P20794); inhibitor).
Casein kinase I isoform delta (CSNK1D, Homo sapiens, UniProt P48730); reference: untreated control — remaining activity: 100%.
Cell division cycle 7-related protein kinase, with DBF4 (CDC7, Homo sapiens, UniProt O00311); reference: untreated control — remaining activity: 109%.
For Discoidin domain-containing receptor 2 (DDR2, Homo sapiens, UniProt Q16832); reference: untreated control: remaining activity read 98.9%.
cGMP-dependent protein kinase 1 (PRKG1, Homo sapiens, UniProt Q13976); reference: untreated control — remaining activity: 107%.

Study 3 — read-out: enzyme activity; mode: inhibitor; tested at: 0.5 µM; reference: control
Compound: COc1cc2ncnc(Nc3ccc(F)c(Cl)c3)c2cc1OCCCN1CCOCC1
It gave 82.3% for remaining activity (Ribosomal protein S6 kinase alpha-2 (RPS6KA2, Homo sapiens, UniProt Q15349)).
For Tyrosine-protein kinase ABL2 (ABL2, Homo sapiens, UniProt P42684): remaining activity read 72%.
Glycogen synthase kinase-3 beta (GSK3B, Homo sapiens, UniProt P49841) — remaining activity: 100%.
Serine/threonine-protein kinase Nek1 (NEK1, Homo sapiens, UniProt Q96PY6) — remaining activity: 90.4%.
For Activin receptor type-1B (ACVR1B, Homo sapiens, UniProt P36896): remaining activity read 99.6%.
For Mitogen-activated protein kinase kinase kinase 14 (MAP3K14, Homo sapiens, UniProt Q99558): remaining activity read 104%.
Dual specificity mitogen-activated protein kinase kinase 2 (MAP2K2, Homo sapiens, UniProt P36507) — remaining activity: 102%.
It gave 95.9% for remaining activity (Tyrosine-protein kinase Mer (MERTK, Homo sapiens, UniProt Q12866)).
Serine/threonine-protein kinase ULK2 (ULK2, Homo sapiens, UniProt Q8IYT8) — remaining activity: 104%.
For Serine/threonine-protein kinase A-Raf (ARAF, Homo sapiens, UniProt P10398): remaining activity read 95.3%.
For Serine/threonine-protein kinase TAO2 (TAOK2, Homo sapiens, UniProt Q9UL54): remaining activity read 106%.
For Rhodopsin kinase GRK7 (GRK7, Homo sapiens, UniProt Q8WTQ7): remaining activity read 96.2%.
Mitogen-activated protein kinase 3 (MAPK3, Homo sapiens, UniProt P27361) — remaining activity: 100%.
The remaining activity was 103% (Mitogen-activated protein kinase kinase kinase 5 (MAP3K5, Homo sapiens, UniProt Q99683)).
The remaining activity was 97.7% (Macrophage-stimulating protein receptor (MST1R, Homo sapiens, UniProt Q04912)).
The remaining activity was 83.1% (Serine/threonine-protein kinase TBK1 (TBK1, Homo sapiens, UniProt Q9UHD2)).
It gave 96.2% for remaining activity (Angiopoietin-1 receptor (TEK, Homo sapiens, UniProt Q02763)).
The remaining activity was 97.9% (Tyrosine-protein kinase FRK (FRK, Homo sapiens, UniProt P42685)).

Study 4 — tested at: 0.1 µM
SMILES: C[C@@H]1CN(c2cc(-c3n[nH]c4ccc(OC5(C)CC5)cc34)ncn2)C[C@H](C)O1
For Cyclin-G-associated kinase (GAK, Homo sapiens, UniProt O14976); cell-free assay, competition with immobilised ligand: remaining binding read 86%.
The remaining binding was 93% (Dual specificity tyrosine-phosphorylation-regulated kinase 1B (DYRK1B, Homo sapiens, UniProt Q9Y463); cell-free assay, competition with immobilised ligand).
Serine/threonine-protein kinase 38 (STK38, Homo sapiens, UniProt Q15208); cell-free assay, competition with immobilised ligand — remaining binding: 87%.
Serine/threonine-protein kinase SIK1 (SIK1, Homo sapiens, UniProt P57059); competition binding — remaining binding: 100%.
Cyclin-dependent kinase 18 (CDK18, Homo sapiens, UniProt Q07002); cell-free assay, competition with immobilised ligand — remaining binding: 100%.
The remaining binding was 97% (Wee1-like protein kinase (WEE1, Homo sapiens, UniProt P30291); cell-free assay, competition with immobilised ligand).
Serine/threonine-protein kinase 16 (STK16, Homo sapiens, UniProt O75716); cell-free assay, competition with immobilised ligand — remaining binding: 100%.
It gave 89% for remaining binding (Cyclin-dependent kinase-like 1 (CDKL1, Homo sapiens, UniProt Q00532); cell-free assay, competition with immobilised ligand).
For Serine/threonine-protein kinase ULK1 (ULK1, Homo sapiens, UniProt O75385); cell-free assay, competition with immobilised ligand: remaining binding read 80%.

For quick reference, copied from above (study 1):
human patients; 100 mg once daily, 8 h, cycle 1 — “plasma concentration, geometric mean”: 2920 ng/mL.
LC-MS/MS; human; 200 mg twice daily, 48 h, single dose — “plasma concentration, geometric mean”: 277 ng/mL.
It gave 2680 ng/mL for “plasma concentration, geometric mean” (human patients; 400 mg once daily, 6 h, cycle 1).
